{"data": "Measurements pooled from the literature", "target": "Histone deacetylase 4 (HDAC4, Homo sapiens, UniProt P56524)", "note": "Lines come from different studies, so protocols differ.", "chain of UniProt P56524 (whole entry, looked up)": "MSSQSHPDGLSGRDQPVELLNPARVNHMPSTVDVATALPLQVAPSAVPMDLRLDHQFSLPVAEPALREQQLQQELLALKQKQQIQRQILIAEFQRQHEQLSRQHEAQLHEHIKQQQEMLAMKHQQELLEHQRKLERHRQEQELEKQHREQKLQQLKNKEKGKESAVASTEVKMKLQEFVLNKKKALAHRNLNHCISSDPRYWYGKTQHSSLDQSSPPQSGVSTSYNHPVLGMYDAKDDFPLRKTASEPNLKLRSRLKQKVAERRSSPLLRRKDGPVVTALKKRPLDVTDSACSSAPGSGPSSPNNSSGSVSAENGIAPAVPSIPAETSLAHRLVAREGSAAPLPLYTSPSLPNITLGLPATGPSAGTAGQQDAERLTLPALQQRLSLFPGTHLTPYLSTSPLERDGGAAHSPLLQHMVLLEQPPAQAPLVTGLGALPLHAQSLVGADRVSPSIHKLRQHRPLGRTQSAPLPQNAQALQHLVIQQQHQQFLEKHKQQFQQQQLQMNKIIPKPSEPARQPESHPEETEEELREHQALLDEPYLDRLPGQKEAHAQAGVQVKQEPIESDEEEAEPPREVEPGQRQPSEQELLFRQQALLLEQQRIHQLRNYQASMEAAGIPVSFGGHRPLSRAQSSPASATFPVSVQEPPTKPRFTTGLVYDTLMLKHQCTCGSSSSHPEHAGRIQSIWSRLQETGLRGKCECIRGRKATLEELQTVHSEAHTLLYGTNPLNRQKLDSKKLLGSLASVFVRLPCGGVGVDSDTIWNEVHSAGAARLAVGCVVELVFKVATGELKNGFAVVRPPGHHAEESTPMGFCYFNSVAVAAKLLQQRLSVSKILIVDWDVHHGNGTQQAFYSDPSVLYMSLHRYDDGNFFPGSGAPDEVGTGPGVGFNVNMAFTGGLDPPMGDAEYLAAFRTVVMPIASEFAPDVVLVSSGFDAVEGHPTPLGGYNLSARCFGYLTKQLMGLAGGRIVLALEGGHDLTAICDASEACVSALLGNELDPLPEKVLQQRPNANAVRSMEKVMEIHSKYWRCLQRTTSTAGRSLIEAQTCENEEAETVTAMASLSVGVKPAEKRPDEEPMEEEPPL"}
{"SMILES": "O=C(CCc1ccc(CNC(C(=O)O)C2CCCCC2)cn1)NO (stereo not shown)", "observed": "enzyme activity", "mode": "inhibitor", "quantity": "IC50", "value": "> 10 µM"}
{"SMILES": "CCCCCCCCCCCCCCN(O)C(=O)CCCCC[C@@H]1NC(=O)[C@H]([C@@H](C)CC)NC(=O)[C@H](Cc2ccccc2C(F)(F)F)NC(=O)CCSCc2cccc(n2)CSCCCNC1=O", "observed": "enzyme activity", "mode": "inhibitor", "technique": "fluorogenic", "quantity": "IC50", "value": "> 30 µM"}
{"SMILES": "Cc1nc2c(F)cc(-c3nc(Nc4ccc(CNC(=O)CCCCCCC(=O)NO)cc4)ncc3F)cc2n1C(C)C", "observed": "enzyme activity", "mode": "inhibitor", "quantity": "IC50", "value": "> 10 µM"}
{"SMILES": "O=C(CNc1cccc2c1C(=O)N(C1CCC(=O)NC1=O)C2=O)NCCOCCOCCOCC(=O)N1CCC(CNC(=O)c2cccc(-c3noc(C(F)(F)F)n3)c2)(c2nc(-c3ccccc3)cs2)CC1 (stereo not shown)", "quantity": "IC50", "value": "1.58 µM"}
{"SMILES": "Nc1ccc(-c2ccc(F)cc2)cc1NC(=O)C1CCOCC1", "observed": "enzyme activity", "mode": "inhibitor", "quantity": "IC50", "value": "> 33.3 µM"}
{"SMILES": "O=C(NO)c1cnc(NC2(c3cccc(F)c3)CCCCC2)nc1", "mode": "inhibitor", "technique": "competition pulldown", "matrix": "SW620 and MV4-11 lysate", "time": "1 h", "quantity": "Kd", "value": "> 30.2 µM"}
{"SMILES": "O=C1CCC(N2C(=O)c3ccc(N4CC(C(=O)N5CC(CCN6CCC(CNC(=O)c7cccc(-c8noc(C(F)(F)F)n8)c7)(c7nc(-c8ccccc8)cs7)CC6)C5)C4)cc3C2=O)C(=O)N1 (stereo not shown)", "quantity": "IC50", "value": "0.45 µM"}
{"SMILES": "COc1ccc(C(=O)NO)cc1NC(=O)c1ccc(-c2ccccc2)cc1", "mode": "inhibitor", "technique": "competition pulldown", "matrix": "SW620 and MV4-11 lysate", "time": "1 h", "quantity": "Kd", "value": "> 30.2 µM"}
{"SMILES": "CC[C@H](C)[C@@H]1NC(=O)[C@H](Cc2ccccc2C(F)(F)F)NC(=O)CCSCc2cccc(n2)CSCCCNC(=O)[C@H](CCCCCC(=O)O)NC1=O", "observed": "enzyme activity", "mode": "inhibitor", "technique": "fluorogenic", "quantity": "IC50", "value": "> 30 µM"}
{"SMILES": "O=C(CCNc1cccc2c1C(=O)N(C1CCC(=O)NC1=O)C2=O)NCCOCCOCCOCCN1CCC(CNC(=O)c2cccc(-c3noc(C(F)(F)F)n3)c2)(c2nc(-c3ccccc3)cs2)CC1 (stereo not shown)", "quantity": "IC50", "value": "1.79 µM"}
